Measured values of several laboratories.
Each line is one published result; not all experiments were run side by side. ± marks the error that the study gave.

SMILES	test	system	setting	scale	measurement	result
CC[C@@H](C)[C@@H](NC(=O)[C@@H](CC(C)C)NC(=O)[C@@H](CCCCN)NC(=O)[C@@H](CC(C)C)NC(=O)[C@@H](CC(C)C)NC(=O)[C@H](NC(=O)[C@@H](Cc1c[nH]cn1)NC(=O)[C@@H](CC(C)C)NC(=O)[C@@H](CCCCN)NC(=O)[C@H](NC(=O)[C@@H](CCCCN)NC(=O)[C@@H](CCCCN)NC(=O)[C@@H](CC(C)C)NC(=O)[C@@H](CO)NC(=O)[C@@H](CCCCN)NC(=O)[C@@H](Cc1ccccc1)NC(=O)[C@H](NC(=O)[C@@H](CCCCN)NC(=O)[C@@H](CC(C)C)NC(=O)[C@@H](Cc1ccccc1)NC(=O)[C@@H](CO)NC(=O)[C@@H](CCCCN)NC(=O)[C@@H](Cc1c[nH]c2ccccc12)NC(=O)[C@@H](CCCCN)NC(C)=O)[C@H](C)O)[C@H](C)O)[C@H](C)O)C(=O)N[C@H](CO)C(=O)N[C@H](CO)C(N)=O	circular dichroism	aqueous phosphate buffer	pH 7.0, 5 °C, at 222 nm		mean residue ellipticity	3700 deg cm²/dmol
NC12CNCCNCC(NCc3ccc(CNC(=O)CCCC(=O)NCc4ccc(-c5nncnn5)cc4)cc3)(CNCCNC1)CNCCNC2.[64Cu+2]	OLINDA dosimetry	osteogenic cells	pretargeting, 48-h interval		mean absorbed dose	0.0805 rad/mCi
C=CC(=O)Nc1cc(Nc2nccc(-c3cn(C)c4ccccc34)n2)c(OC)cc1N(C)CCNC	long-term stability	human dried blood spot QC samples	30 ng/mL, 30 d, -80 °C, MQC level		mean measured concentration	29.2 ng/mL
CCCC[C@H](NC(=O)[C@H](CC(C)C)N(C)C(=O)CNC(=O)[C@@H](NC(=O)[C@H](Cc1ccccc1)NC(=O)[C@H](CCCCN)NC(=O)[C@@H](N)CC(=O)O)C(C)C)C(N)=O		anaesthetised Sinclair minipigs	IN, 100 µg/kg	relative to: baseline	mean arterial pressure change	-1.5 ± 3.99%
CC[C@@H](C)[C@@H](NC(=O)[C@@H](C)NC(=O)[C@@H](CCCCN)NC(=O)[C@@H](CC(C)C)NC(=O)[C@@H](CC(C)C)NC(=O)[C@H](NC(=O)[C@@H](CCCCN)NC(=O)[C@@H](CC(C)C)NC(=O)[C@@H](CCCCN)NC(=O)[C@@H](CCCCN)NC(=O)[C@@H](CCCCN)NC(=O)[C@@H](CCCCN)NC(=O)[C@@H](C)NC(=O)[C@@H](CCCCN)NC(=O)[C@@H](CO)NC(=O)[C@@H](Cc1ccccc1)NC(=O)[C@H](NC(=O)[C@@H](CCCCN)NC(=O)[C@@H](CC(C)C)NC(=O)[C@@H](Cc1ccccc1)NC(=O)[C@@H](CO)NC(=O)[C@@H](CCCCN)NC(=O)[C@@H](Cc1c[nH]c2ccccc12)NC(=O)[C@@H](CCCCN)NC(C)=O)[C@H](C)O)[C@H](C)O)C(=O)N[C@H](CO)C(=O)N[C@H](CCCCN)C(N)=O	circular dichroism	benign aqueous buffer	pH 7.0, 5 °C, at 222 nm	negative is more helical	mean residue molar ellipticity	1750 deg cm2/dmol
C=CC(=O)Nc1cc(Nc2nccc(-c3c[nH]c4ccccc34)n2)c(OC)cc1N(C)CCN(C)C	long-term stability	human dried blood spot QC samples	30 ng/mL, 30 d, -80 °C, MQC level		mean measured concentration	28.9 ng/mL
CC(=O)N[C@H](CCCCN)C(=O)N[C@H](CC(C)C)C(=O)N[C@H](CCCCN)C(=O)N[C@H](CO)C(=O)N[C@H](CC(C)C)C(=O)N[C@H](CC(C)C)C(=O)N[C@H](CCCCN)C(=O)N[C@@H](C(=O)N[C@H](CC(C)C)C(=O)N[C@H](CO)C(=O)N[C@H](CCCCN)C(=O)N[C@H](C)C(=O)N[C@H](CCCCN)C(=O)N[C@H](CCCCN)C(=O)N[C@H](CCCCN)C(=O)N[C@H](CC(C)C)C(=O)N[C@H](CC(C)C)C(=O)N[C@H](CCCCN)C(=O)N[C@@H](C(=O)N[C@H](C)C(=O)N[C@H](CC(C)C)C(=O)N[C@H](CCCCN)C(=O)N[C@H](C)C(=O)N[C@H](CC(C)C)C(=O)N[C@H](CO)C(=O)N[C@H](CCCCN)C(N)=O)[C@H](C)O)[C@H](C)O	circular dichroism	benign aqueous buffer	pH 7.0, 5 °C, at 222 nm	negative is more helical	mean residue molar ellipticity	4350 deg cm2/dmol
CCCCCCCC(=O)OC[C@H](NC(=O)[C@H](CO)NC(=O)CN)C(=O)N[C@@H](Cc1ccccc1)C(=O)N[C@@H](CC(C)C)C(=O)N[C@@H](CO)C(=O)N1CCC[C@H]1C(=O)N[C@@H](CCC(=O)O)C(=O)N[C@@H](Cc1cnc[nH]1)C(=O)N[C@@H](CCC(N)=O)C(=O)N[C@@H](CCCNC(=N)N)C(=O)N[C@H](C(=O)N[C@@H](CCC(N)=O)C(=O)N[C@@H](CCC(N)=O)C(=O)N[C@@H](CCCNC(=N)N)C(=O)N[C@@H](CCCCN)C(=O)N[C@@H](CCC(=O)O)C(=O)N[C@@H](CO)C(=O)N[C@@H](CCCCN)C(=O)N[C@@H](CCCCN)C(=O)N1CCC[C@H]1C(=O)N1CCC[C@H]1C(=O)N[C@@H](C)C(=O)N[C@@H](CCCCN)C(=O)N[C@@H](CC(C)C)C(=O)N[C@@H](CCC(N)=O)C(=O)N1CCC[C@H]1C(=O)N[C@@H](CCCNC(=N)N)C(=O)O)C(C)C		chronic HFrEF patients	intravenous infusion, 0.1 µg/kg/min, end of 120 min infusion		mean arterial pressure	70.9 ± 13.1 mmHg

Excerpt of the above:
SMILES	test	system	setting	scale	measurement	result
CC(=O)N[C@H](CCCCN)C(=O)N[C@H](CC(C)C)C(=O)N[C@H](CCCCN)C(=O)N[C@H](CO)C(=O)N[C@H](CC(C)C)C(=O)N[C@H](CC(C)C)C(=O)N[C@H](CCCCN)C(=O)N[C@@H](C(=O)N[C@H](CC(C)C)C(=O)N[C@H](CO)C(=O)N[C@H](CCCCN)C(=O)N[C@H](C)C(=O)N[C@H](CCCCN)C(=O)N[C@H](CCCCN)C(=O)N[C@H](CCCCN)C(=O)N[C@H](CC(C)C)C(=O)N[C@H](CC(C)C)C(=O)N[C@H](CCCCN)C(=O)N[C@@H](C(=O)N[C@H](C)C(=O)N[C@H](CC(C)C)C(=O)N[C@H](CCCCN)C(=O)N[C@H](C)C(=O)N[C@H](CC(C)C)C(=O)N[C@H](CO)C(=O)N[C@H](CCCCN)C(N)=O)[C@H](C)O)[C@H](C)O	circular dichroism	benign aqueous buffer	pH 7.0, 5 °C, at 222 nm	negative is more helical	mean residue molar ellipticity	4350 deg cm2/dmol
